Published values gathered from unrelated publications.
Several values in a cell are separate wells, animals, samples, runs or records. ± gives the spread as reported.

SMILES = CC(=O)Nc1cccc(-n2c(=O)n(C3CC3)c(=O)c3c(Nc4ccc(I)cc4F)n(C)c(=O)c(C)c32)c1; cell line = LoVo (KRAS G13D); test = resazurin; setting = 1.56 nM, 72 h, unit not given; scale = relative to: DMSO; quantity = viability; value = 0.832 and 0.803
SMILES = O=C(O)[C@H]1O[C@@H](Oc2cc3oc(-c4ccccc4)cc(=O)c3c(O)c2O)[C@H](O)[C@@H](O)[C@@H]1O; cell line = Caco-2 monolayers; test = apical to basolateral transport; setting = 100 µg/mL, 2 h; quantity = amount transported; value = 8.56 ± 0.01%
SMILES = CCOc1cc2ncc(C#N)c(Nc3ccc(OCc4ccccn4)c(Cl)c3)c2cc1NC(=O)/C=C/CN(C)C; cell line = MDCK-II cells, parental; test = bidirectional transwell permeability; setting = 1 µM, 1 h, pH 7.4; quantity = Papp A-B; value = 2.64 ± 0.49 ×10⁻⁶ cm/s
SMILES = COc1cc(/C=C/C=C2\SC(=S)NC2=O)cc(OC)c1O; cell line = HEK-293T; test = CellTiter-Glo; setting = 5 µM, 24 h, unit not given; scale = relative to: untreated; quantity = viability; value = 1.05 and 1.01
SMILES = C[C@@H]1O[C@@H](O[C@H]2[C@H](Oc3cc(O)c4c(c3)O[C@H](c3ccc(O)cc3)CC4=O)O[C@H](CO)[C@@H](O)[C@@H]2O)[C@H](O)[C@H](O)[C@H]1O; cell line = Caco-2 monolayers; test = basolateral to apical transport; setting = 100 µg/mL, 2 h; quantity = amount transported; value = 6.35 ± 0.5%
SMILES = CC(C)C[C@H](NC(=O)CC[C@@H](C)[C@H]1CC[C@H]2[C@@H]3[C@H](O)C[C@@H]4C[C@H](O)CC[C@]4(C)[C@H]3CC[C@]12C)C(=O)O; cell line = HEK293T; test = LC-MS; system = serum-free conditioned medium; setting = 100 µM, overnight; scale = relative to: non-conditioned medium; quantity = recovery; value = 101%
SMILES = CC(=O)O[C@H]1C(=O)[C@@]2(C)[C@H]([C@H](OC(=O)c3ccccc3)[C@]3(O)C[C@H](OC(=O)[C@H](O)[C@@H](NC(=O)c4ccccc4)c4ccccc4)C(C)=C1C3(C)C)[C@]1(OC(C)=O)CO[C@@H]1C[C@@H]2O; cell line = HEK293 transfected with MRP7; test = cell growth; setting = 72 h; quantity = IC50; value = 0.151 ± 0.00263 µM
SMILES = COc1ccc(-c2coc3cc(O)ccc3c2=O)cc1; cell line = Caco-2 monolayers; test = basolateral to apical transport; setting = 100 µg/mL, 2 h; quantity = amount transported; value = 2.32 ± 0.01%
SMILES = Cn1cc(-c2ccc(-c3cncc(Cl)c3N3CCC4(CCNC4=O)CC3)cc2)cn1; cell line = COLO 205; test = microarray, refers to: PGF; setting = concentration not given, 2 h, gene set PLGF; scale = relative to: untreated cells; quantity = fold change in expression; value = 1.13
SMILES = O=C(CCc1ccc(O)cc1)c1c(O)cc(O)cc1O[C@@H]1O[C@H](CO)[C@@H](O)[C@H](O)[C@H]1O; cell line = Caco-2 monolayers; test = apical to basolateral transport; setting = 100 µg/mL, 2 h; quantity = amount transported; value = 2.33 ± 0.2%
SMILES = COc1ccccc1CC(=N)N1C[C@@H]2C(=O)CCC(c3ccccc3)(c3ccccc3)[C@@H]2C1; cell line = PBMC; quantity = CC50; value = > 25 µM
SMILES = O=c1cc(-c2ccccc2)oc2cc(O)c(O)c(O)c12; cell line = Caco-2 monolayers; test = apical to basolateral transport; setting = 100 µg/mL, 2 h; quantity = amount transported; value = 7.31 ± 0.01%
SMILES = Cc1noc(C)c1Cn1cc(N2C(=O)CN(Cc3cccc(O)c3)C2=O)cn1; cell line = human blood lymphocytes; setting = 823.8 µg/mL, 3 h; quantity = aberrant cells with gaps; value = 2.5%
SMILES = COc1cccc(-c2n[nH]c(SCc3ccccn3)n2)c1OC; cell line = primary human lymphocytes; setting = 0.25 mg/mL, 3 h; quantity = structural aberrations per 100 cells; value = 0.5
SMILES = O=C(C[C@@H](C(F)F)n1ccc(F)n1)N1CCC(O)(Cn2cnc3c(cnn3-c3ccc(F)cc3)c2=O)CC1; cell line = CAPAN-1 parental; test = SRB; setting = 2.222 µM, 5 days; quantity = viability; value = 27.2% and 18.9%
SMILES = Cc1nn(-c2nc3c(F)cc(F)cc3s2)c(O)c1C(c1ccc(C(F)(F)F)cc1)c1c(C)nn(-c2nc3c(F)cc(F)cc3s2)c1O; cell line = RAW-ISG; test = cell viability; setting = 24 h; quantity = CC50; value = 59.1 µM
SMILES = CC[C@]1(O)C[C@H]2CN(CCc3c([nH]c4ccccc34)[C@@](C(=O)OC)(c3cc4c(cc3OC)N(C=O)[C@H]3[C@@](O)(C(=O)OC)[C@H](OC(C)=O)[C@]5(CC)C=CCN6CC[C@]43[C@@H]65)C2)C1; cell line = rat DRG neurons (Sprague Dawley); setting = 40 nM, 48 h; quantity = neurite degeneration; value = 88.7% and 78.1% and 79.8% and 74.8% and 87.9%
SMILES = COc1ccc(C(=O)CSc2[nH]c(=O)cc(C(F)(F)F)c2C#N)cc1; cell line = MRC-5 SV2 lung fibroblasts; test = cytotoxicity, resazurin; setting = 3 days, 5% heat-inactivated FCS; quantity = CC50; value = 56.8 µM

For quick reference, copied from above:
SMILES = O=c1cc(-c2ccccc2)oc2cc(O)c(O)c(O)c12; cell line = Caco-2 monolayers; test = apical to basolateral transport; setting = 100 µg/mL, 2 h; quantity = amount transported; value = 7.31 ± 0.01%
SMILES = Cc1noc(C)c1Cn1cc(N2C(=O)CN(Cc3cccc(O)c3)C2=O)cn1; cell line = human blood lymphocytes; setting = 823.8 µg/mL, 3 h; quantity = aberrant cells with gaps; value = 2.5%
SMILES = O=C(O)[C@H]1O[C@@H](Oc2cc3oc(-c4ccccc4)cc(=O)c3c(O)c2O)[C@H](O)[C@@H](O)[C@@H]1O; cell line = Caco-2 monolayers; test = apical to basolateral transport; setting = 100 µg/mL, 2 h; quantity = amount transported; value = 8.56 ± 0.01%
